Results pooled from the literature.
A part holds a random share of what one study measured.
UniProt P07333, sequence (whole entry, looked up): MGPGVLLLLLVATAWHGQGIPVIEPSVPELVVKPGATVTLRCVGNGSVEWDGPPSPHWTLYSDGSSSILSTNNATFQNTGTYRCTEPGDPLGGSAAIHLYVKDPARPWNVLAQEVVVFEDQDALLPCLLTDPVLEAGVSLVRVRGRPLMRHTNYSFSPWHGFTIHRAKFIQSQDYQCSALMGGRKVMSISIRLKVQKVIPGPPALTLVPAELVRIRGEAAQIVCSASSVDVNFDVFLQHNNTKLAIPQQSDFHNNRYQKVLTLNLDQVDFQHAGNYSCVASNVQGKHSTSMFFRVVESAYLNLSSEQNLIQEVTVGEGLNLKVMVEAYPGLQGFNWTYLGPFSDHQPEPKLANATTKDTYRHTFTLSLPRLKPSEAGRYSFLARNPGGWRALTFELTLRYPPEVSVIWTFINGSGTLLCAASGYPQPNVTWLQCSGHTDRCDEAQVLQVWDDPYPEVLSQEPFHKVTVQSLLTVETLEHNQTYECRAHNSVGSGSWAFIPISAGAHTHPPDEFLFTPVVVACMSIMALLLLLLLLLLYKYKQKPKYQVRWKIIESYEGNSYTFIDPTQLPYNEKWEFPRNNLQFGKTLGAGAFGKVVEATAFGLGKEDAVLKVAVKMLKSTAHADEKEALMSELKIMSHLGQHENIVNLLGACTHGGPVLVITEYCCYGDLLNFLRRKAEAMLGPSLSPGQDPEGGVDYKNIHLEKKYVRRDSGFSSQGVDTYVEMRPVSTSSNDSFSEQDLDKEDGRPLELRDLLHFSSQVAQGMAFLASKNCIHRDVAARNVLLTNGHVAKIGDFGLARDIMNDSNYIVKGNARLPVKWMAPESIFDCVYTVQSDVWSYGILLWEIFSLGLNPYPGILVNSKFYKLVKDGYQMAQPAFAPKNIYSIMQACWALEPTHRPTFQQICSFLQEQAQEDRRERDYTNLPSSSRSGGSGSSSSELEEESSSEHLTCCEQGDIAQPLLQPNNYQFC
UniProt P57059, sequence (whole entry, looked up): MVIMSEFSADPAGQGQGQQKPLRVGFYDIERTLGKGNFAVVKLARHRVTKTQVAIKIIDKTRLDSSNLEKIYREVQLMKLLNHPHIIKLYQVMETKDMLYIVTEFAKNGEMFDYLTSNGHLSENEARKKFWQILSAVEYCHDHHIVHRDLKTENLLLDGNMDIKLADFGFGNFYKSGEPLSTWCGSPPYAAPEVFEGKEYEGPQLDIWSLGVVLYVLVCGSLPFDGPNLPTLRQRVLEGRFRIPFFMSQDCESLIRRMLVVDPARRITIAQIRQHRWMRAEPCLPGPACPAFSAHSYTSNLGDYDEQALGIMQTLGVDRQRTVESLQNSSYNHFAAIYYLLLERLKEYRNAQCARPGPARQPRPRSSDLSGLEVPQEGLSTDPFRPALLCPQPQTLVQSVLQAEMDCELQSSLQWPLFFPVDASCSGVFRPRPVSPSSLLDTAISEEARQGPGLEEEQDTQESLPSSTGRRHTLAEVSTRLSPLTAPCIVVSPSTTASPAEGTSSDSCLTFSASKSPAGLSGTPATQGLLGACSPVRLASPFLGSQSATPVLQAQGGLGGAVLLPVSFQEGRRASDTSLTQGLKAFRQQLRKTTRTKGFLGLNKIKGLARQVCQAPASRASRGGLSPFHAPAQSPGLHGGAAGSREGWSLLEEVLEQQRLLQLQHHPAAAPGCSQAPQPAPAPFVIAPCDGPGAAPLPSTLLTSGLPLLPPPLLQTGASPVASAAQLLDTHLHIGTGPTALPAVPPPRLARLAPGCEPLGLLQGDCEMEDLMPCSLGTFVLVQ
UniProt Q96Q40, sequence (whole entry, looked up): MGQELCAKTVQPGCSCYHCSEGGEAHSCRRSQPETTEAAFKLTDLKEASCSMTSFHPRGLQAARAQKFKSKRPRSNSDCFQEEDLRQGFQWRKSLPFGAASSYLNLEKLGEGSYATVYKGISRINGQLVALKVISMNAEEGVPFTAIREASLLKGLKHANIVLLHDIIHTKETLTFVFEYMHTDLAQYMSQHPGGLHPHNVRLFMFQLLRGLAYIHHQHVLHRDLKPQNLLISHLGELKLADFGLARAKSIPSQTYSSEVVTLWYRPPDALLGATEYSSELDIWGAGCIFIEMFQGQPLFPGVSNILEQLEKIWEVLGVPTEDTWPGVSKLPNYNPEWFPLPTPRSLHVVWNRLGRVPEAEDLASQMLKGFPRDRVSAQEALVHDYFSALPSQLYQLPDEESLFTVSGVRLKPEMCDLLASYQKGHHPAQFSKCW
UniProt P49674, sequence (whole entry, looked up): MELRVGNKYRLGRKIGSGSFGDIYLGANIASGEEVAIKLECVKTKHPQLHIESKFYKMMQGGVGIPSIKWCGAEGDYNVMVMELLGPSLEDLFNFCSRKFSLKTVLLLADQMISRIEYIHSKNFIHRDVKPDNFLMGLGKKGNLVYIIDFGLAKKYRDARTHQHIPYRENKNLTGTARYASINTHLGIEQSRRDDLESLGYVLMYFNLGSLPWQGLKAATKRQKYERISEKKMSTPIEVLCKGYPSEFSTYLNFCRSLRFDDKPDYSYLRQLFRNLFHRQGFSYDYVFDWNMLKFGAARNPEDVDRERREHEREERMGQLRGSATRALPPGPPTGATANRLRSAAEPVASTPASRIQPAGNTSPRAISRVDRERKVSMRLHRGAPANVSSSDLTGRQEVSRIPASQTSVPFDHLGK
UniProt P49137, sequence (whole entry, looked up): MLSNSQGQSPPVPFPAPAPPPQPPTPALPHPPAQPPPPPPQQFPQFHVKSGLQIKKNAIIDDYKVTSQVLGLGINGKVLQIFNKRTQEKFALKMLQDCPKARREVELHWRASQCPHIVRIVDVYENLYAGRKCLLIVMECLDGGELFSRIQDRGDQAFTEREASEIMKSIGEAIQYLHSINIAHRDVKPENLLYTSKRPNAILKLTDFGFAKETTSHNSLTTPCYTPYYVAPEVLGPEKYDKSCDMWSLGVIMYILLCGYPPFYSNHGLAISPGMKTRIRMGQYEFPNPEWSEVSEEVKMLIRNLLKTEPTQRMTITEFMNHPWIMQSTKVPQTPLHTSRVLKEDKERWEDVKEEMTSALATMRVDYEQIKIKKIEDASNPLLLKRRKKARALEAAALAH
UniProt P07948, sequence (whole entry, looked up): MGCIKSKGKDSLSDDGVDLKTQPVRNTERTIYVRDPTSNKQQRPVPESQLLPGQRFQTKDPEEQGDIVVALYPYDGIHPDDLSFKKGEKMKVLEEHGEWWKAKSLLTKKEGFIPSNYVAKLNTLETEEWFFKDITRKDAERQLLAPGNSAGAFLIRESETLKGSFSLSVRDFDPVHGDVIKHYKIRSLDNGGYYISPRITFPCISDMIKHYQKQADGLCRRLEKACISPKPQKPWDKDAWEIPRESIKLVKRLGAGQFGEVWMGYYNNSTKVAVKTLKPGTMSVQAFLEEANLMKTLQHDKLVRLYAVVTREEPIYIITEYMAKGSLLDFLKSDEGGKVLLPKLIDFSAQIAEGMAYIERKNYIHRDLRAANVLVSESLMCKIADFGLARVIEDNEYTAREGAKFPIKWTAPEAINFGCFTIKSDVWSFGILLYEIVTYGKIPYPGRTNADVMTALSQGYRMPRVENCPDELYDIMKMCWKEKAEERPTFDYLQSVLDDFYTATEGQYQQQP
UniProt Q13554, sequence (whole entry, looked up): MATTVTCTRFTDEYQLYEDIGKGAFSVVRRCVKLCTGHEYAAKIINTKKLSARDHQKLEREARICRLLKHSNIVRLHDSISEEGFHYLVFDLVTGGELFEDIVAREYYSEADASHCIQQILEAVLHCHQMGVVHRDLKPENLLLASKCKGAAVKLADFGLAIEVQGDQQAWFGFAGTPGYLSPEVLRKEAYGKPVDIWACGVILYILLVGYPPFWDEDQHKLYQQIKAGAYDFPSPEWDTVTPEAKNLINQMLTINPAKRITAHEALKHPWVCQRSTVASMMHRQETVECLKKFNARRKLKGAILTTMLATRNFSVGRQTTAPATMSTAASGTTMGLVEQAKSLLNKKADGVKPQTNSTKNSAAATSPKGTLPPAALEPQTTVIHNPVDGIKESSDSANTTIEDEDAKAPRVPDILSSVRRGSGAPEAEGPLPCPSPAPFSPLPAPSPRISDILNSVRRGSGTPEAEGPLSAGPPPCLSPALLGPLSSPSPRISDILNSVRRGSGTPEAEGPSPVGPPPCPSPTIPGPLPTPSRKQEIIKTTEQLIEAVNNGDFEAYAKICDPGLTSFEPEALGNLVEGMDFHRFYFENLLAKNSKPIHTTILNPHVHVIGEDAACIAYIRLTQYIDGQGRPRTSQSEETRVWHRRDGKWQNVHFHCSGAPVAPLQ

Sample 1
Compound: COc1ccc2cc(OCC3(C(=O)O)CN(C(=O)c4ccc(F)cc4)C3)ccc2c1
Tested at: 1 µM
Receptor-type tyrosine-protein kinase FLT3 (FLT3, Homo sapiens, UniProt P36888, K663Q); cell-free assay, competition with immobilised ligand — remaining binding: 100%.
Platelet-derived growth factor receptor beta (PDGFRB, Homo sapiens, UniProt P09619); cell-free assay, competition with immobilised ligand — remaining binding: 100%.
It gave 100% for remaining binding (Cyclin-dependent kinase 15 (CDK15, Homo sapiens, UniProt Q96Q40); cell-free assay, competition with immobilised ligand).
The remaining binding was 97% (Serine/threonine-protein kinase SIK1 (SIK1, Homo sapiens, UniProt P57059); competition binding).
It gave 100% for remaining binding (Ephrin type-B receptor 2 (EPHB2, Homo sapiens, UniProt P29323); cell-free assay, competition with immobilised ligand).
The remaining binding was 93% (MAP kinase-interacting serine/threonine-protein kinase 1 (MKNK1, Homo sapiens, UniProt Q9BUB5); cell-free assay, competition with immobilised ligand).
For Activin receptor type-2B (ACVR2B, Homo sapiens, UniProt Q13705); binding, competition with immobilised ligand: remaining binding read 100%.
For Calcium/calmodulin-dependent protein kinase type II subunit beta (CAMK2B, Homo sapiens, UniProt Q13554); cell-free assay, competition with immobilised ligand: remaining binding read 100%.
The remaining binding was 100% (Interferon-induced, double-stranded RNA-activated protein kinase (EIF2AK2, Homo sapiens, UniProt P19525); cell-free assay, competition with immobilised ligand).
Tyrosine-protein kinase Lyn (LYN, Homo sapiens, UniProt P07948); cell-free assay, competition with immobilised ligand — remaining binding: 85%.
The remaining binding was 94% (Casein kinase I isoform epsilon (CSNK1E, Homo sapiens, UniProt P49674); cell-free assay, competition with immobilised ligand).
MAP kinase-activated protein kinase 2 (MAPKAPK2, Homo sapiens, UniProt P49137); cell-free assay, competition with immobilised ligand — remaining binding: 100%.
For Serine/threonine-protein kinase TAO3 (TAOK3, Homo sapiens, UniProt Q9H2K8); binding, competition with immobilised ligand: remaining binding read 35%.
Receptor tyrosine-protein kinase erbB-4 (ERBB4, Homo sapiens, UniProt Q15303); cell-free assay, competition with immobilised ligand — remaining binding: 100%.
Tyrosine-protein kinase ABL1, phosphorylated (ABL1, Homo sapiens, UniProt P00519); cell-free assay, competition with immobilised ligand — remaining binding: 100%.
For Calcium/calmodulin-dependent protein kinase type IV (CAMK4, Homo sapiens, UniProt Q16566); cell-free assay, competition with immobilised ligand: remaining binding read 88%.
For Phosphatidylinositol 3-kinase catalytic subunit type 3 (PIK3C3, Homo sapiens, UniProt Q8NEB9); cell-free assay, competition with immobilised ligand: remaining binding read 100%.
The remaining binding was 100% (Tyrosine-protein kinase ABL2 (ABL2, Homo sapiens, UniProt P42684); cell-free assay, competition with immobilised ligand).
For Serine/threonine-protein kinase Nek7 (NEK7, Homo sapiens, UniProt Q8TDX7); cell-free assay, competition with immobilised ligand: remaining binding read 100%.
The remaining binding was 94% (Serine/threonine-protein kinase Nek4 (NEK4, Homo sapiens, UniProt P51957); cell-free assay, competition with immobilised ligand).
Macrophage colony-stimulating factor 1 receptor, autoinhibited (CSF1R, Homo sapiens, UniProt P07333); cell-free assay, competition with immobilised ligand — remaining binding: 75%.
For Receptor-type tyrosine-protein kinase FLT3 (FLT3, Homo sapiens, UniProt P36888, D835V); cell-free assay, competition with immobilised ligand: remaining binding read 100%.
Vascular endothelial growth factor receptor 1 (FLT1, Homo sapiens, UniProt P17948); cell-free assay, competition with immobilised ligand — remaining binding: 100%.
The remaining binding was 79% (ALK tyrosine kinase receptor (ALK, Homo sapiens, UniProt Q9UM73, C1156Y); cell-free assay, competition with immobilised ligand).
The remaining binding was 95% (Inhibitor of nuclear factor kappa-B kinase subunit epsilon (IKBKE, Homo sapiens, UniProt Q14164); cell-free assay, competition with immobilised ligand).

Sample 2
Cell line: A-375
Tested at: 100 µM
Time: 36 h
With C[C@@H]1C/C=C/C=C/C=C/C=C/[C@H](O[C@@H]2O[C@H](C)[C@@H](O)[C@H](N)[C@@H]2O)C[C@@H]2O[C@](O)(C[C@@H](O)C[C@H]3O[C@@H]3/C=C/C(=O)O1)C[C@H](O)[C@H]2C(=O)O the viability was 118%.
With CNC(=O)c1cc(Oc2ccc(NC(=O)Nc3ccc(Cl)c(C(F)(F)F)c3)c(F)c2)ccn1 the viability was 28.4%.
Cc1ccc(/C(=C\CN2CCCC2)c2ccccn2)cc1 gave a viability of 75.3%.
The viability of O=c1ccn([C@@H]2O[C@H](CO)[C@@H](O)[C@H]2O)c(=O)[nH]1 is reported as 112%.
The viability of CC(C)Cn1cnc2c(N)nc3ccccc3c21 is reported as 89.8%.
With Cc1cccc(N(C)C(=S)Oc2ccc3ccccc3c2)c1 the viability was 98.9%.
CCCCC(=O)O[C@]1(C(=O)CO)[C@@H](C)C[C@H]2[C@@H]3CCC4=CC(=O)C=C[C@]4(C)[C@@]3(F)[C@@H](O)C[C@@]21C has a viability of -1.18%.
The viability of COC(=O)C1=CO[C@@H](O[C@@H]2O[C@H](CO)[C@@H](O)[C@H](O)[C@H]2O)[C@@H]2[C@@H](C)[C@@H](O)C[C@H]12 is reported as 101%.

Sample 3
Target: Ribosomal protein S6 kinase alpha-3 (RPS6KA3, Homo sapiens, UniProt P51812)
UniProt P51812, sequence (whole entry, looked up): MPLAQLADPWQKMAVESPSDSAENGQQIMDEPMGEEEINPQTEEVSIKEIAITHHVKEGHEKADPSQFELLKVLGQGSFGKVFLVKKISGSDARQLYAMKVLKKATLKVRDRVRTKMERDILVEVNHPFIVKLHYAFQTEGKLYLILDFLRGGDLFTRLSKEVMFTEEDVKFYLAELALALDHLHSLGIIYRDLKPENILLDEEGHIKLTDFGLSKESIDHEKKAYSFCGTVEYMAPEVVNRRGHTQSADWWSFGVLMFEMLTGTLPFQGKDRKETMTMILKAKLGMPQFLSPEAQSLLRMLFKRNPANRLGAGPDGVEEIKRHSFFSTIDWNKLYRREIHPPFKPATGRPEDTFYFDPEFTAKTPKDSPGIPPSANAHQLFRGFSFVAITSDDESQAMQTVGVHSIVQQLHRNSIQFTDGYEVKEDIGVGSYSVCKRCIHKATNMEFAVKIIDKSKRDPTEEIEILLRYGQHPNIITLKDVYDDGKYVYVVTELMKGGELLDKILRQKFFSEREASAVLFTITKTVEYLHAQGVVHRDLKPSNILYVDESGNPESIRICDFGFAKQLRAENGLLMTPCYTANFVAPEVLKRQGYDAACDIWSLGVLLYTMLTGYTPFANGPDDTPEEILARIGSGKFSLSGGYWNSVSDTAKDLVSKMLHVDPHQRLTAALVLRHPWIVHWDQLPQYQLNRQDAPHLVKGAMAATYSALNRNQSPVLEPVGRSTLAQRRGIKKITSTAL
Effect on: enzyme activity
Mode: inhibitor
Tested at: 0.5 µM
Baseline: control
CCN(CC)CCNC(=O)c1c(C)[nH]c(/C=C2\C(=O)Nc3ccc(Cl)cc32)c1C has a remaining activity of 15.1%.
O=c1cc(-c2cccc3c2Sc2ccccc2S3)oc(N2CCOCC2)c1 has a remaining activity of 102%.
The remaining activity of COc1cc2ncnc(Nc3cccc(Cl)c3)c2cc1OC is reported as 87.8%.
With Cn1nc2c3c(cccc31)C(=O)c1ccccc1-2 the remaining activity was 97.3%.
For Cc1nc2cc3nc(-c4cccs4)cnc3cc2n1C, the remaining activity was 96.3%.
For CCN(CC)C(=O)c1ccc(Nc2nc(OCC3CCCCC3)c3[nH]cnc3n2)cc1, the remaining activity was 17.6%.
Cc1cc2ncc(-c3ccccc3)nc2cc1C gave a remaining activity of 94.2%.
With O=C(NC(NC(=S)Nc1ccc(F)c([N+](=O)[O-])c1)C(Cl)(Cl)Cl)C(c1ccccc1)c1ccccc1 (stereo not shown) the remaining activity was 96.2%.
For CCOc1nc(NC(=O)Cc2cc(OC)ccc2OC)cc(N)c1C#N, the remaining activity was 95.6%.
For O=C1c2ccccc2-c2n[nH]c3cccc1c23, the remaining activity was 75.3%.
With O=C(Nc1cccc(Nc2nccc(Nc3cccc(C(F)(F)F)c3)n2)c1)C1CC1 the remaining activity was 100%.
N#Cc1c(NC(=O)c2cccc3ccccc23)sc2c1CCCC2 has a remaining activity of 99%.
Nc1cccc(-c2cc3c(Oc4cccc(O)c4)ncnc3[nH]2)c1 gave a remaining activity of 96.9%.
c1ccc(-c2[nH]ncc2-c2ccnc3ccccc23)nc1 has a remaining activity of 101%.
c1ccc(-c2cnc(Nc3ccc(OCCN4CCCC4)cc3)s2)cc1 has a remaining activity of 92.2%.
For COc1cc2ncnc(Nc3ccc(O)c(Br)c3)c2cc1OC, the remaining activity was 69.4%.
The remaining activity of COc1cc2c(cc1OC)-c1[nH]nc(Nc3cccc(F)c3)c1C2 is reported as 94.7%.
Ic1cccc(CSc2nnc(-c3ccncc3)o2)c1 gave a remaining activity of 96.4%.
With O=C1C(Cl)=C(N2C(=O)CCC2=O)C(=O)c2ccccc21 the remaining activity was 101%.
With CN(C)C[C@H]1CCn2c(c(C3=C(c4cn(C)c5ccccc45)C(=O)NC3=O)c3ccccc32)C1 the remaining activity was 1.81%.
For N#C/C(=C\c1ccc(O)c(O)c1)C(=O)NCc1ccccc1, the remaining activity was 100%.

Further values, each from its own experiment
For C[C@@H]1OC(O)[C@H](O)[C@H](O)[C@H]1O (stereo partly shown), the remaining activity was 100% (Diamine acetyltransferase 1 (Homo sapiens, UniProt P21673); inhibitor; 10 µM; baseline: control).

Repeated from above (sample 3):
With O=C(NC(NC(=S)Nc1ccc(F)c([N+](=O)[O-])c1)C(Cl)(Cl)Cl)C(c1ccccc1)c1ccccc1 (stereo not shown) the remaining activity was 96.2%.
For CCOc1nc(NC(=O)Cc2cc(OC)ccc2OC)cc(N)c1C#N, the remaining activity was 95.6%.
For O=C1c2ccccc2-c2n[nH]c3cccc1c23, the remaining activity was 75.3%.
With O=C(Nc1cccc(Nc2nccc(Nc3cccc(C(F)(F)F)c3)n2)c1)C1CC1 the remaining activity was 100%.
N#Cc1c(NC(=O)c2cccc3ccccc23)sc2c1CCCC2 has a remaining activity of 99%.
Nc1cccc(-c2cc3c(Oc4cccc(O)c4)ncnc3[nH]2)c1 gave a remaining activity of 96.9%.
